Measured values from different studies.
Numbered parts are unrelated; each lists some results of a single study.

Study 1
Target: Centromere-binding protein 1, full length, His-tagged (CBF1, Saccharomyces cerevisiae, UniProt P17106, residues 1-351)
UniProt P17106, sequence (whole entry, looked up): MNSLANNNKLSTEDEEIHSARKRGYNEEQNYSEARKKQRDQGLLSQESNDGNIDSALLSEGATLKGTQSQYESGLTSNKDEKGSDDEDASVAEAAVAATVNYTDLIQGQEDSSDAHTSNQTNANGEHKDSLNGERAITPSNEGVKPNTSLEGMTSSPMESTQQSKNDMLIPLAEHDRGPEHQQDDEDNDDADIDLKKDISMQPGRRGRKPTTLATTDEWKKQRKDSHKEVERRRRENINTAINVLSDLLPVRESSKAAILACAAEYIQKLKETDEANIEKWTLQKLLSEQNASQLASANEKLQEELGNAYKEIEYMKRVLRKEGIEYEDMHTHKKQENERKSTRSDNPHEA
Technique: competition protein-binding microarray
Molecule type: double-stranded DNA, one strand shown
Sample: in vitro
Concentration: 2 µM
Setting: whole 60-bp probe, lowest competitor level
With: Pho4 competitor, 0.05 µM
Reading: higher = stronger binding
With `CATACCCAACCTTTTCACGTGGGCTAAGATATTTGTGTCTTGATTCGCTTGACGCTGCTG` the fluorescence intensity was 996 a.u.
For `CGCTGGAAAACCGCCCACGTGGGAAGAAGCCCTGGCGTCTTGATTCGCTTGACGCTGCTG`, the fluorescence intensity was 718 a.u.
For `TCCGATGGTACTCATGTAGCTGCCTCATACGAGACCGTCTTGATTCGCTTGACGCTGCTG`, the fluorescence intensity was 60.5 a.u.
`CAATCTCTTGAAGGCCATGTGTAGTGCAACCGGCTTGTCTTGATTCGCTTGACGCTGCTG` has a fluorescence intensity of 81.2 a.u.
With `TTTCGAGAGCATACCCACGGGTAGGAAAGAAAGAGGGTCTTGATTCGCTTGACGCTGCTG` the fluorescence intensity was 76.5 a.u.
With `TATCTTGTCATCCACCATGTGTCTTAGTCGTTGATAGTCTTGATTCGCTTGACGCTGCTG` the fluorescence intensity was 89.4 a.u.
For `CGTTAAAGGGACCAAAACGTGGGTAAGGGATGCCGCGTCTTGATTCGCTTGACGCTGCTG`, the fluorescence intensity was 95.4 a.u.
The fluorescence intensity of `CCTTGAGGAGAACTTCTAGTATATCTACATACCTAAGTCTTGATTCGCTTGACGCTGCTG` is reported as 83.6 a.u.
With `CTTCTGTAAATTTGCCTAGTGGGTGGACGCGCCCCGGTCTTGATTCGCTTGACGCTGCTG` the fluorescence intensity was 75.5 a.u.
For `TGTGGGAATTGTACCCACGATCCCCGCATTACGAGTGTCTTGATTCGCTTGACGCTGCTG`, the fluorescence intensity was 67.4 a.u.
With `AGAGGGCAGAATTTGTCCGTGCGGACATTTGCCTGTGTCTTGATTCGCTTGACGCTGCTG` the fluorescence intensity was 62.9 a.u.
With `TGCGCAACAACTTGTGCTGTGGGTGTATGTCTAGAAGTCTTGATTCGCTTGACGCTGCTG` the fluorescence intensity was 66.3 a.u.

Study 2
Target: Histone acetyltransferase KAT6A, winged helix 2, GST fusion (KAT6A, Homo sapiens, UniProt Q92794, residues 85-181)
Technique: protein binding microarray
Molecule type: double-stranded DNA, one strand shown
Sample: in vitro
Concentration: not given
Setting: 8-mer, flanks averaged, mean of 2 arrays, mostly near background
Reference: not given
Reading: higher = stronger binding
Target sequence (chain): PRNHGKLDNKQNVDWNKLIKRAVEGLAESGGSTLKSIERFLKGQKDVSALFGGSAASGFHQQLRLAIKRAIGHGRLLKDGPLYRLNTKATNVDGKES
`ATATTAGA` has an E-score of 0.0352.
With `ACGGAGAT` the E-score was -0.113.
The E-score of `ATGTATGA` is reported as -0.0378.
`CGGCCCCA` has an E-score of 0.118.
`GTAAAAGA` gave an E-score of 0.0352.
With `GAGGCAGC` the E-score was -0.109.
`CGAACTCC` has an E-score of 0.139.
`ACCGTCGA` has an E-score of -0.126.
`GAAGGCGA` gave an E-score of 0.0641.

Other studies, line by line
`NUP62 (Homo sapiens, UniProt P37198)`: cross-linked residues “E392 to K312” (NUP58 (Homo sapiens, UniProt Q9BVL2); cross-linking MS; cell fractions; with: DMTMM).
With `PhoQ, residues 284 288 289 292 302 303 ASHLAV` the fold induction was 2.59 (PhoP, residues 12 14 15 18 19 NQFFI (Escherichia coli, UniProt P23836); Sort-seq, refers to: YFP reporter; E. coli; PhoQ-PhoP variant library, with: 10 µM Mg2+; reference: high Mg2+ state, higher = stronger signaling).
For `RRP8 (Homo sapiens, UniProt O43159)`, cross-linked residues read “S80 to K350” (HNRNPA1 (Homo sapiens, UniProt P09651); cross-linking MS; cell fractions; with: DSSO).
For `ATP5PB (Homo sapiens, UniProt P24539)`, cross-linked residues read “K221 to K199” (ATP5PO (Homo sapiens, UniProt P48047); cross-linking MS; cell fractions; with: DSSO).
For `MDH2 (Homo sapiens, UniProt P40926)`, interaction screen read “cross-linked” (HSPE1 (Homo sapiens, UniProt P61604); cross-linking MS; hits only).

Excerpt of the above (study 2):
With `ACGGAGAT` the E-score was -0.113.
The E-score of `ATGTATGA` is reported as -0.0378.
`CGGCCCCA` has an E-score of 0.118.
